Measurements pooled from the literature.
Compare with care: the assays were run in different laboratories. ± gives the spread as reported.

SMILES	cell line	observed	method	time	pH	setting	IC50 [µM]
C[C@H]1[C@H](OC(=O)CCC(=O)OCCc2ccc(O)cc2)O[C@@H]2O[C@@]3(C)CC[C@H]4[C@H](C)CC[C@@H]1[C@@]24OO3	SK-MEL-24	cell viability	MTT	24 h	–	without deferoxamine	1.5 ± 0.04
COC(=O)C1CN1S(=O)(=O)c1ccc(N)cc1 (stereo not shown)	HT-1080	cell growth or viability	MTT	48 h	–	–	200
CC(C)C[C@H](NC(=O)[C@H](CC(C)C)NC(=O)[C@H](Cc1c[nH]cn1)NC(=O)[C@H](CCC(=O)O)NC(=O)[C@H](CC(C)C)NC(=O)[C@H](Cc1c[nH]cn1)NC(=O)[C@H](CCC(=O)O)NC(=O)[C@H](CC(C)C)NC(=O)[C@H](CC(C)C)NC(=O)[C@H](Cc1c[nH]cn1)NC(=O)[C@H](CCC(=O)O)NC(=O)[C@@H](N)CC(C)C)C(=O)N[C@@H](CCC(=O)O)C(=O)N[C@@H](Cc1c[nH]cn1)C(N)=O	4T1	cell growth or viability	MTT	–	pH 6	–	> 100
N=C(N)NCCC[C@H](NC(=O)[C@H](CCCNC(=N)N)NC(=O)[C@@H]1CCCN1C(=O)[C@H](CCCNC(=N)N)NC(=O)[C@H](CCCNC(=N)N)NC(=O)[C@H](CCCNC(=N)N)NC(=O)[C@H](Cc1c[nH]c2ccccc12)NC(=O)[C@H](CCCNC(=N)N)NC(=O)[C@H](CCCNC(=N)N)NC(=O)[C@H](CCCNC(=N)N)NC(=O)[C@H](CCCNC(=N)N)NC(=O)[C@H](CCCNC(=N)N)NC(=O)[C@H](Cc1c[nH]c2ccccc12)NC(=O)[C@H](CCCNC(=N)N)NC(=O)[C@H](CCCNC(=N)N)NC(=O)[C@H](Cc1ccc(O)cc1)NC(=O)[C@H](CCCNC(=N)N)NC(=O)[C@H](CCCNC(=N)N)NC(=O)[C@H](CCCNC(=N)N)NC(=O)[C@@H](N)Cc1c[nH]c2ccccc12)C(N)=O	Hs68	cell viability	CellTiter-Blue	24 h	–	serum-free medium	10.8 ± 0.3
COc1cc(C=CC(=O)CC(=O)C=Cc2ccc(OC(=O)CCC(=O)OC3OC4OC5(C)CCC6C(C)CCC(C3C)C46OO5)c(OC)c2)ccc1OC(=O)CCC(=O)OC1OC2OC3(C)CCC4C(C)CCC(C1C)C24OO3 (stereo not shown)	SK-MEL-24	cell viability	MTT	24 h	–	without deferoxamine	2.54 ± 0.5
CC[C@@]1(O)C(=O)OCc2c1cc1n(c2=O)Cc2c-1nc1cc(F)c(C)c3c1c2[C@@H](NC(=O)CCCN)CC3	MDA-MB-468	cell growth or viability	ATP luminescence	5 days	–	–	0.0097
CCOC(=O)[C@@H]1Cc2c(cc([N+](=O)[O-])cc2[N+](=O)[O-])[C@@H](O)[C@@]12C(=O)Nc1ccc(Cl)cc12 (single isomer, unassigned)	U-251	cell growth or viability	MTT	24 h	–	–	> 50
N[C@H](CC[As](O)O)C(=O)O	MCF-12A	cell growth or viability	–	–	–	–	75
COC(=O)C1CN1S(=O)(=O)c1ccccc1 (stereo not shown)	HT-1080	cell growth or viability	MTT	48 h	–	–	150
OC[C@H]1[C@@H](O)[C@@H](O)CN1Cc1ccccc1	K562-Tax	cell growth or viability	MTS	72 h	–	–	107
C1N2CN3CN1CP(C2)C3.CC(C)OC(=O)C(n1cccn1)n1cccn1.F[P-](F)(F)(F)(F)F.[Cu+]	LoVo OXP, oxaliplatin-resistant	–	MTT	72 h	–	–	21.8 ± 3.4
CC(=O)N[C@@H](Cc1c[nH]cn1)C(=O)N[C@@H](C)C(=O)N1CCC[C@H]1C(=O)N1CCC[C@H]1C(=O)N[C@@H](CC(C)C)C(=O)N[C@@H](Cc1c[nH]cn1)C(=O)N[C@@H](CO)C(=O)N[C@H](C(=O)N[C@@H](C)C(N)=O)[C@@H](C)OP(=O)(O)O	U-266	cell growth or viability	MTT	72 h	–	–	0.84
[Cl][Au].[Se]=c1n(C2CCCCC2)ccn1C1CCCCC1	H157 lung carcinoma cells	cell viability	MTT	72 h	–	–	0.6 ± 0.05
CC(C)C[C@H](NC(=O)[C@H](CC(C)C)NC(=O)[C@H](CCC(=O)O)NC(=O)[C@H](CCC(=O)O)NC(=O)[C@H](CC(C)C)NC(=O)[C@H](Cc1c[nH]cn1)NC(=O)[C@H](Cc1c[nH]cn1)NC(=O)[C@H](CC(C)C)NC(=O)[C@H](CC(C)C)NC(=O)[C@H](CCC(=O)O)NC(=O)[C@H](CCC(=O)O)NC(=O)[C@@H](N)CC(C)C)C(=O)N[C@@H](Cc1c[nH]cn1)C(=O)N[C@@H](Cc1c[nH]cn1)C(N)=O	4T1	cell growth or viability	MTT	–	pH 7.4	–	> 100
CC[C@H](C)[C@H](NC(=O)[C@H](CO)NC(=O)[C@H](CCCNC(=N)N)NC(=O)[C@@H]1CCCN1C(=O)[C@H](Cc1c[nH]c2ccccc12)NC(=O)[C@H](CCCNC(=N)N)NC(=O)[C@H](CCCNC(=N)N)NC(C)=O)C(=O)N[C@@H](CC(C)C)C(=O)N[C@@H](CC(=O)O)C(=O)N[C@@H](CCC(=O)O)C(=O)N[C@@H](Cc1c[nH]cn1)C(=O)N[C@H](C(=O)N[C@@H](CCCNC(=N)N)C(=O)N[C@@H](CCCNC(=N)N)C(=O)N[C@H](C(=O)N[C@@H](Cc1c[nH]c2ccccc12)C(=O)N[C@@H](CCCNC(=N)N)C(=O)NCCCCCC(=O)N[C@@H](C)C(=O)N[C@@H](CC(C)C)C(=O)N[C@@H](C)C(=O)N1CCC[C@H]1C(=O)N[C@@H](Cc1ccc(O)cc1)C(=O)N[C@H](C(=O)N1CCC[C@H]1C(=O)N[C@@H](Cc1ccc(O)cc1)C(=O)NCC(=O)N[C@@H](CCCNC(=N)N)C(=O)N[C@@H](CCCCN)C(=O)N[C@@H](CCCCN)C(=O)N[C@@H](CCCNC(=N)N)C(=O)N[C@@H](CCCNC(=N)N)C(=O)N[C@@H](CCC(N)=O)C(=O)N[C@@H](CCCNC(=N)N)C(=O)N[C@@H](CCCNC(=N)N)C(=O)N[C@@H](CCCNC(=N)N)C(N)=O)[C@@H](C)CC)C(C)C)C(C)C	CT26	cell growth or viability	CCK-8	–	–	–	12.3
COc1cccc2c1C(=O)c1c(O)c3c(c(O)c1C2=O)C[C@@](O)(C(=O)CO)C[C@@H]3O[C@H]1C[C@H](NC(=O)CCN2C(=O)CC(SC[C@H](N)C(=O)N3CCC[C@H]3C(=O)N[C@@H](CCCCN)C(=O)N[C@@H](CCCCN)C(=O)N[C@@H](CCCCN)C(=O)N[C@@H](CCCNC(=N)N)C(=O)N[C@@H](CCCCN)C(=O)N[C@H](C(N)=O)C(C)C)C2=O)[C@H](O)[C@H](C)O1 (stereo partly shown)	MCF7, doxorubicin-sensitive	cytotoxicity	CCK-8	96 h	–	–	1.21 ± 0.25

Excerpt of the above:
SMILES	cell line	observed	method	time	pH	setting	IC50 [µM]
CC[C@H](C)[C@H](NC(=O)[C@H](CO)NC(=O)[C@H](CCCNC(=N)N)NC(=O)[C@@H]1CCCN1C(=O)[C@H](Cc1c[nH]c2ccccc12)NC(=O)[C@H](CCCNC(=N)N)NC(=O)[C@H](CCCNC(=N)N)NC(C)=O)C(=O)N[C@@H](CC(C)C)C(=O)N[C@@H](CC(=O)O)C(=O)N[C@@H](CCC(=O)O)C(=O)N[C@@H](Cc1c[nH]cn1)C(=O)N[C@H](C(=O)N[C@@H](CCCNC(=N)N)C(=O)N[C@@H](CCCNC(=N)N)C(=O)N[C@H](C(=O)N[C@@H](Cc1c[nH]c2ccccc12)C(=O)N[C@@H](CCCNC(=N)N)C(=O)NCCCCCC(=O)N[C@@H](C)C(=O)N[C@@H](CC(C)C)C(=O)N[C@@H](C)C(=O)N1CCC[C@H]1C(=O)N[C@@H](Cc1ccc(O)cc1)C(=O)N[C@H](C(=O)N1CCC[C@H]1C(=O)N[C@@H](Cc1ccc(O)cc1)C(=O)NCC(=O)N[C@@H](CCCNC(=N)N)C(=O)N[C@@H](CCCCN)C(=O)N[C@@H](CCCCN)C(=O)N[C@@H](CCCNC(=N)N)C(=O)N[C@@H](CCCNC(=N)N)C(=O)N[C@@H](CCC(N)=O)C(=O)N[C@@H](CCCNC(=N)N)C(=O)N[C@@H](CCCNC(=N)N)C(=O)N[C@@H](CCCNC(=N)N)C(N)=O)[C@@H](C)CC)C(C)C)C(C)C	CT26	cell growth or viability	CCK-8	–	–	–	12.3
C1N2CN3CN1CP(C2)C3.CC(C)OC(=O)C(n1cccn1)n1cccn1.F[P-](F)(F)(F)(F)F.[Cu+]	LoVo OXP, oxaliplatin-resistant	–	MTT	72 h	–	–	21.8 ± 3.4
